# Measured values pooled from the literature.
# Protocols differ between the studies behind these lines. ± gives the spread as reported.
# Cell line: HepG2
Structure (SMILES),assay,setting,how to read,endpoint,value
CCCCCCCCCCCCCC(=O)NCC(=O)N(CC(=O)N(CCCCN)CC(=O)N(CCN)CC(=O)N(CC(N)=O)C1CCCCC1)C1CCCCC1,"cytotoxicity, MTT",72 h,,TD50,> 200 µg/mL
CNC(=O)c1c(F)cccc1Nc1nc(Nc2cc3c(cc2OC)CCN3C(=O)CN(C)C)nc2[nH]ccc12,cytotoxicity,,,pTC50,5.1
CC1(C)CC[C@]2(C(=O)O)CC[C@]3(C)C(=CC[C@@H]4[C@@]5(C)CC[C@H](O)[C@@](C)(C(=O)O)[C@@H]5CC[C@]43C)[C@@H]2C1,"cell growth or viability, MTT",72 h,,IC50,35.7 µM
CC(=O)O[C@@H]1CC[C@@]2(C)C(CC[C@]3(C)C2C(=O)C=C2C4[C@@H](C)[C@H](C)CC[C@]4(C)CC[C@]23C)[C@@]1(C)C(=O)N/N=C\c1ccccc1O (stereo partly drawn),"cell growth or viability, MTT","25 µM, 24 h",,viability,99%
CC1=N[C@H](C)Cc2c(-c3ccc(C)cc3)ccc(O)c21,cytotoxicity,,,EC50,> 50 µM
CC(C)=CCc1c(O)cc2c(c1O)C(=O)OC2,"cell growth or viability, CCK-8","20 µM, 24 h",,viability,93.3%
O=C(CCl)Sc1nnc(-c2n[nH]c(=O)c3ccccc23)o1,"qRT-PCR, refers to: TXNRD1","IC50, 8 h",relative to: untreated,mRNA level,0.93 ± 0.09 fold
COc1cc([C@@H]2OC[C@@H]3[C@H]2CO[C@H]3c2cc(OC)c(O)c(OC)c2)cc(OC)c1O,"cell growth or viability, CCK-8","30 µM, 24 h",,viability,80.2%
COc1cccc2c(-c3ccc4c(c3O)[C@@H](C)N[C@H](C)C4)c(CO)cc(OC)c12,cytotoxicity,,,EC50,45.5 ± 12.1 µM
CCCCCCCCCCCCCNCC(=O)N(CC(=O)N(CCCCN)CC(=O)N(CCN)CC(=O)N(CC(N)=O)c1ccc2c(c1)CCC2)c1ccc2c(c1)CCC2,"cytotoxicity, MTT",72 h,,TD50,91 ± 4 µg/mL
COc1ccc(C(=O)/C=C(\O)C(F)(F)C(F)(F)F)c(O)c1,cell viability,"24 h, 10% FBS",,EC50,~10 µM
COC1C=COC2(C)Oc3c(C)c(O)c4c(c3C2=O)C2=NC3(CCN(CC(C)C)CC3)NC2=C(NC(=O)C(C)=CC=CC(C)C(O)C(C)C(O)C(C)C(OC(=O)Nc2cnccn2)C1C)C4=O (stereo not drawn),,48 h,relative to: CC50 over MIC,selectivity index,2220
CCCCCCCCCCCCCNCC(=O)N(CC(=O)N(CCCCN)CC(=O)N(CCN)CC(=O)N(CC(N)=O)CC1CCCO1)CC1CCCO1 (stereo not drawn),"cytotoxicity, MTT",72 h,,TD50,> 200 µg/mL
CC(=O)O[C@@H]1CC[C@@]2(C)C(CC[C@]3(C)C2C(=O)C=C2C4[C@@H](C)[C@H](C)CC[C@]4(C)CC[C@]23C)[C@@]1(C)C(=O)N/N=C1/C(=O)Nc2ccccc21 (stereo partly drawn),"cell growth or viability, MTT","25 µM, 24 h",,viability,93%
COc1cccc2c(-c3ccc(O)c4c3CC(C)(C)N=C4)ccc(OC(C)C)c12,cytotoxicity,,,EC50,> 50 µM
CCCCN=Cc1[nH]c(-c2ccc[nH]2)cc1OC,"cell growth or viability, resazurin",,,IC50,23 µM
CC(=O)O[C@@H]1CC[C@@]2(C)C(CC[C@]3(C)C2C(=O)C=C2C4[C@@H](C)[C@H](C)CC[C@]4(C)CC[C@]23C)[C@@]1(C)C(=O)N/N=C\C=Cc1ccccc1 (stereo partly drawn),"cell growth or viability, MTT","25 µM, 24 h",,viability,91%
CC1=CC(OC(=O)c2ccccc2)C2(COC(=O)c3ccccc3)CCC(=C(C)C)C2C(O)CC2(C)OC2CC1 (stereo not drawn),"cell growth or viability, CCK-8","30 µM, 24 h",,viability,90.7%
COc1ccc(OC)c(/C=N\NC(=O)[C@]2(C)C3CC[C@]4(C)C(C(=O)C=C5C6[C@@H](C)[C@H](C)CC[C@]6(C)CC[C@]54C)[C@@]3(C)CC[C@H]2OC(C)=O)c1 (stereo partly drawn),"cell growth or viability, MTT","25 µM, 24 h",,viability,90%
CCC1=C(C)C(=CNC2CCCCCCC2)N=C1c1ccc[nH]1,"cell growth or viability, resazurin",,,IC50,18.9 µM
CC1=N[C@H](C)Cc2c(-c3ccc4ccccc4c3)ccc(O)c21,cytotoxicity,,,EC50,> 50 µM
COC1=CC(c2ccc[nH]2)=NC1=CNC1CCCCCC1,"cell growth or viability, resazurin",,,IC50,10.1 µM
C=CCc1ccc(OC(=O)COC(=O)[C@]2(C)C3CC[C@]4(C)C(C(=O)C=C5C6[C@@H](C)[C@H](C)CC[C@]6(C)CC[C@]54C)[C@@]3(C)CC[C@H]2OC(C)=O)c(OC)c1 (stereo partly drawn),"cell growth or viability, MTT","25 µM, 24 h",,viability,104%
COC(=O)CC[C@@H](NC(=O)[C@@H](Cc1ccc(OP(=O)(O)O)cc1)NC(=O)[C@@H](Cc1ccccc1)NC(=O)[C@@H](Cc1ccccc1)NC(=O)Cc1ccc2ccccc2c1)C(=O)OC,,"200 µM, 24 h",,remaining compound,46.9%
CC(=O)O[C@@H]1CC[C@@]2(C)C(CC[C@]3(C)C2C(=O)C=C2C4[C@@H](C)[C@H](C)CC[C@]4(C)CC[C@]23C)[C@@]1(C)c1nnc(SCC(=O)Oc2cc(C)ccc2C(C)C)o1 (stereo partly drawn),"cell growth or viability, MTT","25 µM, 24 h",,viability,95%
Cc1nc(N(C)C)nc(C)c1O,,"100 µM, 24 h",relative to: untreated,intracellular ATP level,~1.8 fold control
COC1=CC(c2ccc[nH]2)=NC1=CNC1CCCCCCC1,"cell growth or viability, resazurin",,,IC50,9.7 µM
C=CCc1ccc(OC(=O)CSc2nnc([C@]3(C)C4CC[C@]5(C)C(C(=O)C=C6C7[C@@H](C)[C@H](C)CC[C@]7(C)CC[C@]65C)[C@@]4(C)CC[C@H]3OC(C)=O)o2)c(OC)c1 (stereo partly drawn),"cell growth or viability, MTT","25 µM, 24 h",,viability,87%
CC1=CC(=CNC23CC4CC(CC(C4)C2)C3)N=C1c1ccc[nH]1,"cell growth or viability, resazurin",,,IC50,30 µM
C[C@@H]1O[C@@H](O[C@H]2[C@H](O[C@H]3CC[C@@]4(C)C(CC[C@]5(C)C4CC=C4C6CC(C)(C)CC[C@]6(C(=O)O[C@@H]6O[C@H](CO)[C@@H](O)[C@H](O)[C@H]6O)CC[C@]45C)[C@]3(C)CO)OC[C@H](O)[C@@H]2O)[C@H](O)[C@H](O[C@@H]2OC[C@@H](O)[C@H](O)[C@H]2O)[C@H]1O (stereo partly drawn),"cell growth or viability, CCK-8","50 µM, 24 h",,viability,69.3%
COc1cc(O)c(-c2cc(-c3cc(-c4c(O)cc(OC)c5c4C[C@@H](C)N[C@@H]5C)c4cc(C)cc(OC)c4c3O)c(O)c3c(OC)cc(C)cc23)c2c1[C@@H](C)N[C@H](C)C2,cytotoxicity,,,EC50,30.5 ± 9 µM
CCC1=C(C)C(=CNC23CC4CC(CC(C4)C2)C3)N=C1c1ccc[nH]1,"cell growth or viability, resazurin",,,IC50,3.3 µM
CC(=O)N[C@H]1[C@@H](OCc2cn(CC(=O)N3C[C@@H](ONC(=O)[C@@H]4C[C@H](ON5C(=O)c6ccccc6C5=O)CN4C(=O)Cn4cc(CO[C@H]5O[C@H](CO)[C@H](O)[C@H](O)[C@H]5NC(C)=O)nn4)C[C@H]3C(=O)NO[C@H]3C[C@@H](C(=O)NO[C@H]4C[C@@H](C(=O)OC(C)(C)C)N(C(=O)Cn5cc(CO[C@H]6O[C@H](CO)[C@H](O)[C@H](O)[C@H]6NC(C)=O)nn5)C4)N(C(=O)Cn4cc(CO[C@H]5O[C@H](CO)[C@H](O)[C@H](O)[C@H]5NC(C)=O)nn4)C3)nn2)O[C@H](CO)[C@H](O)[C@@H]1O,MTS,"concentration not given, 72 h",,cytotoxicity,not toxic
C1=CC(c2ccc[nH]2)=NC1=CNC12CC3CC(CC(C3)C1)C2,"cell growth or viability, resazurin",,,IC50,70 µM
CC(C)=C1CC[C@]2(COC(=O)c3ccccc3)[C@@H](OC(=O)c3ccccc3)/C=C(\C)CC[C@@H]3O[C@@]3(C)C[C@@H](OC(=O)c3cccnc3)[C@@H]12,"cell growth or viability, CCK-8","20 µM, 24 h",,viability,93.1%
COC1C=COC2(C)Oc3c(C)c(O)c4c(c3C2=O)C2=NC3(CCN(CC(C)C)CC3)NC2=C(NC(=O)C(C)=CC=CC(C)C(O)C(C)C(O)C(C)C(OC(=O)c2cccnc2)C1C)C4=O (stereo not drawn),,48 h,relative to: CC50 over MIC,selectivity index,2080
COC1=CC(c2ccc[nH]2)=NC1=CNC12CC3CC(CC(C3)C1)C2,"cell growth or viability, resazurin",,,IC50,3.3 µM
CC(C)=CCc1c(O)cc(CO)cc1O,"cell growth or viability, CCK-8","30 µM, 24 h",,viability,89.4%
COc1ccccc1NC(=O)OC1C(C)C(OC)C=COC2(C)Oc3c(C)c(O)c4c(c3C2=O)C2=NC3(CCN(CC(C)C)CC3)NC2=C(NC(=O)C(C)=CC=CC(C)C(O)C(C)C(O)C1C)C4=O (stereo not drawn),,48 h,relative to: CC50 over MIC,selectivity index,4130
COC(=O)c1[nH]c(C(=O)OC)c2c1-c1c[nH]c3ccc(Cl)c(c13)[C@]21C=Nc2ccc(Cl)cc21,"cell growth or viability, ATP luminescence",72 h,,CC50,> 10 µM
CC(=O)O[C@@H]1CC[C@@]2(C)C(CC[C@]3(C)C2C(=O)C=C2C4[C@@H](C)[C@H](C)CC[C@]4(C)CC[C@]23C)[C@@]1(C)C(=O)OCC(=O)O[C@@H]1C[C@H](C)CC[C@H]1C(C)C (stereo partly drawn),"cell growth or viability, MTT","25 µM, 24 h",,viability,90%
Cc1ccc(C)c2sc(NC(=O)C3CCN(S(=O)(=O)c4ccc(F)cc4)CC3)nc12,MTT,"up to 30 µM, 24 h",,cytotoxicity,not toxic

# Excerpt of the above:
Structure (SMILES),assay,setting,how to read,endpoint,value
CCC1=C(C)C(=CNC2CCCCCCC2)N=C1c1ccc[nH]1,"cell growth or viability, resazurin",,,IC50,18.9 µM
CC1=N[C@H](C)Cc2c(-c3ccc4ccccc4c3)ccc(O)c21,cytotoxicity,,,EC50,> 50 µM
COC1=CC(c2ccc[nH]2)=NC1=CNC1CCCCCC1,"cell growth or viability, resazurin",,,IC50,10.1 µM
C=CCc1ccc(OC(=O)COC(=O)[C@]2(C)C3CC[C@]4(C)C(C(=O)C=C5C6[C@@H](C)[C@H](C)CC[C@]6(C)CC[C@]54C)[C@@]3(C)CC[C@H]2OC(C)=O)c(OC)c1 (stereo partly drawn),"cell growth or viability, MTT","25 µM, 24 h",,viability,104%
COC(=O)CC[C@@H](NC(=O)[C@@H](Cc1ccc(OP(=O)(O)O)cc1)NC(=O)[C@@H](Cc1ccccc1)NC(=O)[C@@H](Cc1ccccc1)NC(=O)Cc1ccc2ccccc2c1)C(=O)OC,,"200 µM, 24 h",,remaining compound,46.9%
CC(=O)O[C@@H]1CC[C@@]2(C)C(CC[C@]3(C)C2C(=O)C=C2C4[C@@H](C)[C@H](C)CC[C@]4(C)CC[C@]23C)[C@@]1(C)c1nnc(SCC(=O)Oc2cc(C)ccc2C(C)C)o1 (stereo partly drawn),"cell growth or viability, MTT","25 µM, 24 h",,viability,95%
